# Published values gathered from unrelated publications.
# Parts stem from different laboratories: compare values within a part only. Positions count from the first letter of the parent shown.

# Study 1
# Target: CRIPT, C-terminal peptide
# Method: DHFR complementation, deep sequencing
# Matrix: yeast
# Notes: single substitutions, model-inferred values
# Baseline: wild type
# Direction: higher = weaker binding
# Starting sequence: ERBIN, PDZ domain 1 (human); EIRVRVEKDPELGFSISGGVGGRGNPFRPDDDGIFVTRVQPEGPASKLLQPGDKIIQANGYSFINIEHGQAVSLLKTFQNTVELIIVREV; partner TKNYKQTSV
Substitution,binding free energy change [kcal/mol]
I55T,0.692
G52T,0.419
D32N,0.237
V36L,0.21
Y61C,-0.00404
T77N,-0.0612
S73H,0.0113
G33A,0.449

# Study 2
# Host: human
# Matrix: microsomes or S9
# Concentration: 2 µM
# Time: 0.5 h
SMILES,remaining compound
COC(=O)/C(=C/C(C)=C/c1cc(C(=O)OC)nc(O)n1)OC,1.38%
O=C1Nc2c(c3cc(O)ccc3n2Cc2ccccc2)CNC1Cc1ccccc1 (stereo not drawn),0%
COC(=O)CC(c1ccc(OC)c(OC(C)C)c1)c1c(O)cc(C)[nH]c1=O (stereo not drawn),> 99%

# Study 3
# Organism: Plasmodium berghei
# Action: inhibitor
# Cell line: Huh-7
# Strain: liver stage
# Concentration: 10 µM
# Time: 24 h
# Baseline: untreated control
Structure (SMILES),infection rate [%]
CC(=O)OCC(=O)[C@@]1(O)CC[C@H]2[C@@H]3CCC4=CC(=O)CC[C@]4(C)[C@@]3(F)[C@@H](O)C[C@@]21C,102
C[N+]1(C)CCCC(OC(=O)C(O)(c2ccccc2)c2ccccc2)C1 (stereo not drawn),96.3
CC1CC(OC(=O)c2ccccc2O)CC(C)(C)C1 (stereo not drawn),110

# Study 4
# Target: Sigma non-opioid intracellular receptor 1 (SIGMAR1, Homo sapiens, UniProt Q99720)
# Observed: ligand displacement
# Concentration: 10 µM
Structure (SMILES),inhibition [%]
CN(C)C(=O)c1sc2nc(N3CCC(S(C)(=O)=O)CC3)cc(C(F)(F)F)c2c1N,31.5
Cc1noc([C@H]2C[C@@H](c3ccc(C(F)(F)F)cc3)CN(C(=O)N3CCS(=O)(=O)C3)C2)n1,-18.4
CO[C@H]1CC[C@H](CNc2ccc(S(=O)(=O)NC(=O)c3ccc(N4CCN(CC5=C(c6ccc(Cl)cc6)CC(C)(C)CC5)CC4)cc3Oc3cnc4[nH]ccc4c3)cc2[N+](=O)[O-])CC1,49.8
O=C(NCCCC1CCCCC1)c1ccc(CNC(=O)c2cnn(-c3ccccc3)c2C(F)(F)F)cc1,20.1
Cc1ccccc1Oc1cc(-n2c(=O)cc(C(F)(F)F)[nH]c2=O)c2ccccc2c1Cl,19
CN(C)CC#Cc1ccc(OCCCc2sc(N3CCc4cccc(C(=O)Nc5nc6ccccc6s5)c4C3)nc2C(=O)O)c(F)c1,53.3
CN1CCN(C(=O)C(C)(C)c2ccc(C(=O)Nc3cn4cc(-c5cc(C(C)(C)C)cc(C(C)(C)C)c5)ccc4n3)cc2)CC1,90
CCC(F)(F)c1cc(N2CCC(S(C)(=O)=O)CC2)nc2sc(C(N)=O)c(N)c12,8.89
Cc1cc(Nc2nccc(C)n2)cc(-c2cnc([C@@]3(O)CC[C@H](C(=O)O)C(C)(C)C3)s2)c1,-22.9
O=c1nc(-c2ccccn2)sc2ccccc12,14
CN(C)c1ncnc(-c2ccc3nc(Nc4cc(CN5CCN(C(=O)CC(F)(F)F)CC5)ccn4)[nH]c3c2)c1Cl,13.9
CN1CCN(c2ccnc(NCCc3ccccc3)n2)CC1,98.8
Cn1nc(C(=O)NCc2ccc(C(=O)O)cc2)cc1-c1ccc2[nH]ccc2c1,1.99
